Measurements gathered from unrelated publications.
A part holds a random share of what one study measured.

Sample 1
Target: Interferon regulatory factor 7, full length, phosphomimetic (IRF7, Homo sapiens, UniProt Q92985, residues 1-503, S471D/S472D/S475D/S476D/S477D/S483D/S484D/S487D)
Sequence of UniProt Q92985 (whole entry, unmodified, looked up): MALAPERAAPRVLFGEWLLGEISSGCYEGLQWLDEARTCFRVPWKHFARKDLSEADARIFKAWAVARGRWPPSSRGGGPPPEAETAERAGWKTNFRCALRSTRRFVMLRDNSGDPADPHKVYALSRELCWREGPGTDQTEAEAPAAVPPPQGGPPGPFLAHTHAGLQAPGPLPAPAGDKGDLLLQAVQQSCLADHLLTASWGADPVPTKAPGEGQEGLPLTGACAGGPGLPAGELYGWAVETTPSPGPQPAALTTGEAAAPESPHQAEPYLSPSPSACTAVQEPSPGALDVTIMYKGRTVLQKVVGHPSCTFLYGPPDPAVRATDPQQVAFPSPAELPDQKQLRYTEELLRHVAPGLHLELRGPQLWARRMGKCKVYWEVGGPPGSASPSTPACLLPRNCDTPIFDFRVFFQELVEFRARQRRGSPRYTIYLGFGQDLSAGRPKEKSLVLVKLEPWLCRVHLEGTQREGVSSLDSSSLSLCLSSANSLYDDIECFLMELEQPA
Technique: protein-binding microarray
Molecule type: double-stranded DNA, one strand shown
Medium: in vitro
Concentration: 2200 nM top
Setting: 60-bp whole probe
With: salmon DNA 0.4 mg/ml
Baseline: random background probes
Direction: higher = stronger binding
All sequences stand within: GCCTAGCAC … GTCTTGATTCGCTTGACGCTGCTG
| Sequence | fitted relative affinity [z-score] |
| --- | --- |
| TTAGGTTTCCTTACCCTTTAGTGCTAG | 1.38 |
| TTAGCACTGGACTTTCGGTTAGTGCTA | 4.95 |
| GACCGTATCGACTTTCGGGACGTGCTA | 3.2 |
| AACGATTTCAGTATCGAGACGTGCTAG | 0.698 |
| CTAGATCTCAGTCTCGATTAGTGCTAG | 0.742 |
| TCATCTTGCTTTTTAGAACTGTGCTAG | 1.43 |
| TAAGATTTCGGGTTTCGATTAGTGCTA | 5.95 |
| TTAGAACTGAGGATCGATTAGTGCTAG | -0.735 |
| TTAGTACTGAGTCTCGATTAGTGCTAG | 0.293 |
| TCACTTCTCAATTAAAAACTGTGCTAG | 1.78 |
| GACGGTTTAGGTATCGGGACGTGCTAG | 0.791 |
| GACGGTCTCCTTCTCCTGACGTGCTAG | 1.02 |
| TTTGGACTGGACACTGGGTTAGTGCTA | -0.174 |
| TTAGGTATCCTTTTCCTTTAGTGCTAG | 1.7 |
| CACGGTATCGGTTTCGGGACGTGCTAG | 3.96 |
| TCAAGAAAGAAAACGGGGAGGTGCTAG | -1.03 |
| TTCGGTATCGGTCTCGGTTAGTGCTAG | 1.57 |
| TTAGGTATCGGGTTTCTGTTAGTGCTA | 1.74 |
| TTAGGGTTCGGGACTGGGTTAGTGCTA | -0.25 |
| TTAGGTATCGGCTTTCGGTTAGTGCTA | 3.98 |
| GACGGTCTCGGTTTCGCGACGTGCTAG | 2.27 |
| GACGATTTCGGGTAGCGAGACGTGCTA | 2.23 |
| GGCGAACTGAGTCTCGAGACGTGCTAG | -0.215 |
| GACGGTTTCGGGTACCGGGACGTGCTA | 5.63 |

Sample 2
Target: RNA binding protein fox-1 homolog 2, RRM domain, GST-SBP tag (RBFOX2, Homo sapiens, UniProt O43251-10, residues 100-194)
Technique: RNA Bind-n-Seq
Molecule type: RNA
Medium: in vitro
Concentration: 365 nM
Setting: natural RNA segment, single round, ends assumed
Baseline: no-protein control
Direction: higher = stronger binding
Construct (chain): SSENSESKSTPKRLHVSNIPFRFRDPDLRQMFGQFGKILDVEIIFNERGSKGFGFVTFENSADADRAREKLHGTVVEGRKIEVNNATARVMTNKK
| Sequence | RBNS enrichment (R) |
| --- | --- |
| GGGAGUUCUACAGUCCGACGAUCGUCUCUGGGUCGGUCAGUGACAUGUAGGUAGGAAGCACUGAAAAUAGUGUUCCCAGAGCACUUUGCAACUCCCUGGGUAAGAGGGACGACACCUCUGGUUUUUCAAUACCUGGAAUUCUCGGGUGCCAA | 0.33 |
| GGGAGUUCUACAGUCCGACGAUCCCACAGUUCCUGGCUGCCUUUCUCCUGUGUAUGUGUAAAUUCCUUAAUAAAUAUUGCAGGGAAGGACUGUUUGCUUGGCCAUUACUGUGCGUCACUCUUGGAGGAGGGUGUGGAAUUCUCGGGUGCCAA | 2.81 |
| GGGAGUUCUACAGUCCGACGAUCAAUAGUCUCCCCAUCCCAUGAGGGGGCUUUGAUGGCCCUGGAGACCCUACAGUAAAUAAACCAGCAUCGUGCCGCCCAAAGCCGCCUCUGCUUAGUUGCCAAACAAGGGGUGGAAUUCUCGGGUGCCAA | 0.441 |
| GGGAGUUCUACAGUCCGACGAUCAAAAGAAAACAUAGGUCUCUUAAACCAGGCAACUUUCACGUUUUGGGAGUUGAGACUGAGCAAUUUCUCCUUGUAACAAAGAAUCUCCAUGAAAUUCUGUUUCAUCUGUUUGGAAUUCUCGGGUGCCAA | 0.304 |
| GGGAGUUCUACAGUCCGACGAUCCUUUUUAAUUUCCAGAACUGCACAAUGACCAGCAGGAGGGAAGGACAGACAUCAAGUGCCAGAUGUUGUCUGAACUAAUCGAGCACUUCUCACCAAACUUCAUGUAUAAAUGGAAUUCUCGGGUGCCAA | 0.436 |
| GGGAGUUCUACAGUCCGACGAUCCCGAGCGGGUAGGAGAGUUUCUUGCAGAACGUGUUUUUUCUUUACACACAUUAUGGCUGUAAAUACCUGGCUCCUGCCAGCAGCUGAGCUGGGUAGCCUCUCUGAGCUGGUGGAAUUCUCGGGUGCCAA | 0.355 |
| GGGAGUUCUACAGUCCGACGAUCUAAUUAUUUGAUAACUCUUGUAAAUAGGUGGAAUAUGAAUGCUUGGAAAAUUAAACUUUAAUUUAUUGACAUUGUACAUAGCUCUGUGUAAAUAGAAUUGCAACUGUCAGUGGAAUUCUCGGGUGCCAA | 0.996 |
| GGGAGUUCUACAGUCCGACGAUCUUUCUCCAGGUGUGCAGAUGGCAUGUUAGUGUGGGCACGCUGUUAAGUGGGUAUCCCACCUCCAGCCCACAGUGCUCAGUUGUACUUUUUAUUAUUAAACUAUAAUUAUCUGGAAUUCUCGGGUGCCAA | 0.771 |
| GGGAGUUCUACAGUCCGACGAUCACUCUGCUACAUGGUACAGCUACCGCUAGACCUACAACUUAUGUACACAGUUGAUUUUGAUGUAUUUAUAAAAGCUUUUUUUUUCCCUAGAUUUGACAUUACUUCCUGUAUGGAAUUCUCGGGUGCCAA | 0.51 |
| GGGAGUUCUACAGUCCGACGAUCGUCCUGAGCUUCCUCUAGCUCACUCUAGAAGUAAUGGUCUAAUCAAAGGUCGUCUGUCUGCUUUUGAUUGUCUACAUCACAGCAAUCCCUGGGAAUUUCUAUCCAUUUUAUGGAAUUCUCGGGUGCCAA | 0.335 |
| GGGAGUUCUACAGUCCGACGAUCAAAGCUUCAUAAUAAUACAUUCUUACCUAAAGCUCACUGUCAUGAUGUUAGGUAUUUAAAUUCUUAAAGAUGUUGGGUUGUUUAUUAGUGGUAUUUUUAUGUUGUCUUAUUGGAAUUCUCGGGUGCCAA | 0.583 |
| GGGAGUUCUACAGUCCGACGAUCCCGAGGGGACCGGGUGUGUUUGGCUCUUUAUGCCCCUCCCGCUGUGGUCCUGGAACUCUUCACCAGGGAGGGAGCCCUGCGGGGGCCGCAGCUUUGUGGAGGGAGCCGCCUGGAAUUCUCGGGUGCCAA | 0.567 |

Sample 3
Target: Ras GTPase-activating protein-binding protein 1, C-terminal RGG region (G3BP1, Homo sapiens, UniProt Q13283)
Sequence of UniProt Q13283 (whole entry, looked up): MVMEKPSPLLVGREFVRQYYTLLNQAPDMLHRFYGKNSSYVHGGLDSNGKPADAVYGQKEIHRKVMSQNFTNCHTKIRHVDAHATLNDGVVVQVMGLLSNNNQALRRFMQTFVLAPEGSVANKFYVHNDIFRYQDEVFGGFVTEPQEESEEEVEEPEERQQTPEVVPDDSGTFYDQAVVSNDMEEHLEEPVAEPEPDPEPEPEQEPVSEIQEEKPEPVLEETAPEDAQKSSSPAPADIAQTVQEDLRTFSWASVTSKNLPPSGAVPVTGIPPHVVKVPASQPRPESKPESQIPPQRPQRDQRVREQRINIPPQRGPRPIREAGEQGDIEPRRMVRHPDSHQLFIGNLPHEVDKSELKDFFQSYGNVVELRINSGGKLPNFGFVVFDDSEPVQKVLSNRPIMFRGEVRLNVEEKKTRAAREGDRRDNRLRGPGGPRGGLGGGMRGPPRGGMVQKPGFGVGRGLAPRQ
Technique: RNA Bind-n-Seq
Molecule type: RNA
Medium: in vitro
Concentration: 1 µM
Setting: whole 134-nt RNA, ends assumed
With: 150 mM KCl
Baseline: input library
Direction: higher = stronger binding
| Sequence | log2 enrichment |
| --- | --- |
| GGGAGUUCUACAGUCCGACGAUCUAACUUUAGAGGAGGAUCUGAUGGAUAUCGCAGUGGACGUGGAUUUGGGGAUGGCUAUAAUGGGUAUGGAGGAGGACCUGGAGGUGGCAAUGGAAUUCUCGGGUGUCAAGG | -1.38 |
| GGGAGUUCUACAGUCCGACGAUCAGUCCUGUGCUACACAUCGUAUGUACCGAAUCGGUUUUUUUGGAAAAAGGUUUUUGGAAAGUAUUAUGUUACGCCGUUCGGAUCUGCACUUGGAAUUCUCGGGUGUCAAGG | -2.42 |
| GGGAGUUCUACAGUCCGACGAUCUGUGCUACACAUCGUAUGUACCGAAUCGGGGAAAAAAAGGGGAAAAAAAGGAAAAAAAGGGGAAAGUAUUAUGUUACGCCGUUCGGAUCUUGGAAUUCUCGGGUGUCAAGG | -0.95 |
| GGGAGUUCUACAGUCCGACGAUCAAGUCCUGUGCUACACAUCGUAUGUACCGAAUCGGCCCCCGGCCCCCGGCCCCCGGAAAGUAUUAUGUUACGCCGUUCGGAUCUGCACUUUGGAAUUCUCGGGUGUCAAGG | -1.75 |
| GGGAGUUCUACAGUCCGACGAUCUGGAGAAGGAACGUGAUAAAGAAGUAAGCGAUGAUGAGGCUGAAGAAAAGGAAGACAAAGAAGAAGAAAAAGAAAAAGAAGAGAAAGAGUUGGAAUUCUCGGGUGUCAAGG | -0.676 |
| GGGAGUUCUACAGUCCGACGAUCGUCCUGUGCUACACAUCGUAUGUACCGAAUCAAAUUUAAAUUUUUUUAAAUUUUUAAAAAAGUAUUAUGUUACGCCGUUCGGAUCUGCACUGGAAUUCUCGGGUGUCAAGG | -2.61 |
| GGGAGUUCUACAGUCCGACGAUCAGUCCUGUGCUACACAUCGUAUGUACCGAAUCGGAAAAAGGGAAAAAGGGAAAAAGGGAAAGUAUUAUGUUACGCCGUUCGGAUCUGCACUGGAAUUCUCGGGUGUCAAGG | -1.72 |
| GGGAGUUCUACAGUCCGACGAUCUGGGAGGUGGAUUUUGUUUAUUUUUUUAGCUCAUUUGCAGGGGUGGGAAUUUUUUUUUAAUAUGUGUCAUGAAUAAAGUUGUUUUUGAAAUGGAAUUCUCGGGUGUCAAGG | 3.52 |
| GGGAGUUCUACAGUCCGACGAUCCUGUGCUACACAUCGUAUGUACCGAAUCGGGCCCCCCCGGGGCCCCCCCGGGGCCCCCCCGGAAAGUAUUAUGUUACGCCGUUCGGAUCUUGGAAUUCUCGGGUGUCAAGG | -1.93 |
| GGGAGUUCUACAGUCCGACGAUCUUGCAGAUGAGCUUAUGGGGGGCAAUCUUAAAAAGUCCACAGCAGAUGCAUCCGGCUCGAGGGGCCAUCAGCUUUGAAUAAAUGCUUGUUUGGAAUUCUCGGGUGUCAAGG | -0.56 |
| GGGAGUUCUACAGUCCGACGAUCAGUCCUGUGCUACACAUCGUAUGUACCGAAUCGGGCCCCCGGCCCCCGGCCCCCGGGGAAAGUAUUAUGUUACGCCGUUCGGAUCUGCACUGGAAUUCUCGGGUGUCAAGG | -2.3 |
| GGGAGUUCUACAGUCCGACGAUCUACCAUGGUGGAAGUUCCCGUUCUCGUAGCAGUAUUUUCCAUGCAGGAAAAAGCCAAGGACUACAUGAAAACAACAUACCUGACAAUGAAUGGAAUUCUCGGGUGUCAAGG | -0.468 |
| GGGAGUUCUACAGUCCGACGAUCAGUCCUGUGCUACACAUCGUAUGUACCGAAUCGGGAGGGAAAAAGGGAAAAAAAGGGAAAGUAUUAUGUUACGCCGUUCGGAUCUGCACUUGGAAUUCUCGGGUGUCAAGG | -0.15 |
| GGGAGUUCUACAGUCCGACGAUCCCUGUGCUACACAUCGUAUGUACCGAAUCGGGGCCCCCCGGGGCCCCCCGGCCCCCCGGGGAAAGUAUUAUGUUACGCCGUUCGGAUCUGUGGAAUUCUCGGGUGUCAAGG | -2.05 |

Sample 4
Target: Sal-like protein 4, full length isoform A (SALL4, Homo sapiens, UniProt Q9UJQ4, residues 1-1053)
Sequence of UniProt Q9UJQ4 (whole entry, looked up): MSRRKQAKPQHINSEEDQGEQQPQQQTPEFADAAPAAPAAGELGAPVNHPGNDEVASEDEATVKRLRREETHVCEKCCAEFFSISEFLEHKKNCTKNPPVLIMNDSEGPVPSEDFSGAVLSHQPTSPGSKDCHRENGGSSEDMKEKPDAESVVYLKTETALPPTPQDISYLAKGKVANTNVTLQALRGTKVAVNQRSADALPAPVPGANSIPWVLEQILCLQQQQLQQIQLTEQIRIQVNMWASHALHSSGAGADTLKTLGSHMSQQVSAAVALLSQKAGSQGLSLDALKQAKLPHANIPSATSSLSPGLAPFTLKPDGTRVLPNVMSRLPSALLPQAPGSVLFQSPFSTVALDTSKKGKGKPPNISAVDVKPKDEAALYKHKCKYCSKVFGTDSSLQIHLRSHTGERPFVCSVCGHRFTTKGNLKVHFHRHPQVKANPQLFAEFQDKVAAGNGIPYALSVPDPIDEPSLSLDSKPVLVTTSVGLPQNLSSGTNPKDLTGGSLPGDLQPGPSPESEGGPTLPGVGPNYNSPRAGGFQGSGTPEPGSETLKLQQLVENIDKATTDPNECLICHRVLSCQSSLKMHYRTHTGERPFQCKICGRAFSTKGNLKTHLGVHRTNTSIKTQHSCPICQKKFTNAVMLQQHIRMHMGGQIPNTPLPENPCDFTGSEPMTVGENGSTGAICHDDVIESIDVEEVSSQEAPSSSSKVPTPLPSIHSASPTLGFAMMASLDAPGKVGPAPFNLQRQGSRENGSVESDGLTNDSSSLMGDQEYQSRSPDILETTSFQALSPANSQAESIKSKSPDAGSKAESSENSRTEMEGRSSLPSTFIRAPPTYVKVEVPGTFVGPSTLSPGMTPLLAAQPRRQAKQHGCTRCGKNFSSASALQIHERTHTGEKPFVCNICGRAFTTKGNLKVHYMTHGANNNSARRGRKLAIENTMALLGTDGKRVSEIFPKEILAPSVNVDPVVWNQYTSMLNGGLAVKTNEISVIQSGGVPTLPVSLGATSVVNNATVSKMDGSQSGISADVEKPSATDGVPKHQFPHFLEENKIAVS
Technique: universal PBM
Molecule type: double-stranded DNA, one strand shown
Medium: in vitro
Concentration: 600 nM
Setting: 8-mer, flanks averaged, mean of replicates
Direction: higher = stronger binding
| Sequence | E-score |
| --- | --- |
| ACGTGGGA | -0.159 |
| AGCCCACC | -0.295 |
| CGAACTGC | -0.0409 |
| AGTAAATC | 0.144 |
| CTGTGAAG | -0.0266 |
| CGTGGCAG | -0.195 |
| AGCCCTAG | -0.118 |
| CTACCAAA | 0.0866 |
| GTCGTGCA | -0.0858 |
| CAATGCGA | -0.00564 |
| CAGAGGGC | -0.221 |
| CACTTATC | 0.174 |
| GGCCCTAA | -0.177 |
| ATATGGCG | 0.104 |
| CTTGTCGA | 0.0853 |
| CCAATTTA | 0.24 |
| CCGACGCC | -0.342 |
| AGAATCTA | 0.131 |
| ATAAGTGA | 0.24 |

Repeated from above (sample 1):
| Sequence | fitted relative affinity [z-score] |
| --- | --- |
| GACGGTTTCGGGTACCGGGACGTGCTA | 5.63 |
| TTAGGTTTCCTTACCCTTTAGTGCTAG | 1.38 |
| TTAGGGTTCGGGACTGGGTTAGTGCTA | -0.25 |
| TTAGGTATCGGGTTTCTGTTAGTGCTA | 1.74 |
| GACGATTTCGGGTAGCGAGACGTGCTA | 2.23 |
| TTAGGTATCCTTTTCCTTTAGTGCTAG | 1.7 |
| TTAGTACTGAGTCTCGATTAGTGCTAG | 0.293 |
| CACGGTATCGGTTTCGGGACGTGCTAG | 3.96 |
